Measured values of several laboratories.
Each line is one published result; not all experiments were run side by side. Numbers after ± are the reported error.

The AUC(0-24 h) of `Cc1cc2nc3c(=O)[nH]c(=O)nc-3n(C[C@H](O)[C@H](O)[C@H](O)CO)c2cc1C` is reported as 149 ng·h/mL (human, plasma; oral, dose not given, day 14, added: rosuvastatin).
With `C#Cc1cccc(Nc2ncnc3cc(OCCOC)c(OCCOC)cc23)c1` the AUC(0-24 h) was 20.5 ± 11.5 µM·h (human, plasma; oral, 50 mg daily, day 8, added: docetaxel).
`CC1=C(c2cccc(O)c2)[C@H](c2ccc(OCCN3CC(CF)C3)cc2)Oc2ccc(O)cc21` gave an AUC(0-24 h) of 1130 ng·h/mL (human, plasma; oral, 600 mg once daily, steady state geometric mean).
For `Cn1nc2c(=O)n(C3CC3)cnc2c1[C@](O)(c1cnc(C(F)(F)F)c(Cl)c1)C(F)(F)F`, the AUC(0-24 h) was 19.3 µM·h (humanized SCID mice, blood; 3 mg/kg once daily, 6 days, infected).
For `COc1cnc(C(=O)Nc2ccc(F)c([C@]34CN(c5ncc(F)cn5)C[C@H]3CSC(N)=N4)c2)cn1`, the AUC(0-24 h) was 8.53 ng·h/mL (human, CSF; single dose, 26 mg, geometric mean).
`Cl.[2H]C([2H])([2H])CC(=O)c1cnc(NC(=O)C2CC2)cc1Nc1cccc(-c2ncn(C([2H])([2H])[2H])n2)c1OC` has an AUC(0-24 h) of 1870 ng·h/mL (geometric mean; human; oral, 25 mg single dose, fasted, liquid).
`O=C(NO)c1ccc(CN(c2cnccn2)c2cnccn2)cc1` has an AUC(0-24 h) of ~14100 ng·h/mL (human patients, plasma; oral, 800 mg twice daily, day 1, approximate mean).
`N#CCC1CCN(c2nc(Nc3ccc(N4CCC(O)CC4)cc3)c3c(=O)[nH]ncc3n2)CC1` gave an AUC(0-24 h) of 580 ng·h/mL (human, plasma; oral, 20 mg once daily, day 1).
`CC(C)(Sc1ccncc1-c1ccc(C#N)c2ccccc12)C(=O)O` gave an AUC(0-24 h) of 106 ng·h/mL (human, plasma; oral, 5 mg once daily, geometric mean, added: febuxostat 20 mg).
